Published values from different studies.
Each numbered part is a random draw from the data of one study; scales do not carry over between parts.

Study 1
Target: Fragile X messenger ribonucleoprotein 1, C-terminal low-complexity region (Fmr1, Mus musculus, UniProt P35922)
Technique: RNA Bind-n-Seq
Form: RNA
Medium: in vitro
Tested at: 200 nM
Notes: whole 134-nt RNA, ends assumed
With: 150 mM LiCl
Relative to: input library
Direction: higher = stronger binding
Each molecule: 7-deaza-guanosine replaces G
Strand | log2 enrichment
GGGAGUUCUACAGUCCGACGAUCUGGCCCUGGUGGCAUGCGGGCAGGAAGAGGUGGCCUCAUGGAUCGUGGUGGUCCCGGUGGAAUGUUCAGAGGUGGCCGUGGUGGAGACAGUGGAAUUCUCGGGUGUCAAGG | 0.133
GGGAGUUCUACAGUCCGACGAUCUCAAGUCCUGUGCUACACAUCGUAUGUACCGAAUCGGUUUGGAAAGGUUUUUGGAAAGUAUUAUGUUACGCCGUUCGGAUCUGCACUUCCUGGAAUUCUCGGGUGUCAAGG | -1.1
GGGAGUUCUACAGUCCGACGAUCGCAGGAAGUAAAAACAAAUGGAAAUGCUUCGGAUAGUGGCAGGGGUGGGGGUUGCUAAGGAAAGGGUGGGAUGGGAGUCGGUAAAGAGUUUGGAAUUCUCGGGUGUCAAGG | 0.862
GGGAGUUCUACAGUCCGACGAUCCCUCAAGUCCUGUGCUACACAUCGUAUGUACCGAAUCGGUUUGGAGGUUUGGAAAGUAUUAUGUUACGCCGUUCGGAUCUGCACUUCCAGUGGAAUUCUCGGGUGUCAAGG | -1.14
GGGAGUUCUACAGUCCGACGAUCCACAGACAACACGCACCCACACAGACACAGAGGGAAGGGGUUGGGAUGGGGACAGGGUGCACAGCAGGGCGGGGUAGGACCCCAGCCACUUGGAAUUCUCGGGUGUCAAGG | -0.436
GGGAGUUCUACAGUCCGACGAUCACCAUGCAGGUGGGCAUCUUUGGGAAGUGUGGCAAGGGGGGGAUAGGGAGGGGGGUAACACUUUGGGAACAGGUGGUCCCAGGUCGUUUCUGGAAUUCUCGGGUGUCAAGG | 1.41
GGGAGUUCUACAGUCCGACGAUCGCAGGAAGUAAAAACAAAUGGAAAUGCUUCGGAUAGUGGCAGGGGUGGGGGUAGCUAAGGAAAGGGUGGGAUGGGAGUGGGUAAAGAGUUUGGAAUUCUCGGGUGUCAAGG | 1.85
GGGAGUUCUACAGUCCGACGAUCCUGUGCUACACAUCGUAUGUACCGAAUCGGUUUUUUUGGGGUUUUUUUGGGUUUUUUUGGGGAAAGUAUUAUGUUACGCCGUUCGGAUCUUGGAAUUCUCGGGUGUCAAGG | 1.33
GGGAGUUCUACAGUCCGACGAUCCAAGUCCUGUGCUACACAUCGUAUGUACCGAAUCGGGUGGGAAAAAGGGUUUGGGAAAGUAUUAUGUUACGCCGUUCGGAUCUGCACUUCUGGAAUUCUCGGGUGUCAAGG | -2.32
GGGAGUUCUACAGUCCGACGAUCUCAAGUCCUGUGCUACACAUCGUAUGUACCGAAUCGGGAAAGGGAAAGGGUGGGAAAGUAUUAUGUUACGCCGUUCGGAUCUGCACUUCCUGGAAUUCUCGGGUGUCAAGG | -1.23
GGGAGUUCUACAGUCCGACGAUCUCAAGUCCUGUGCUACACAUCGUAUGUACCGAAUCGGGAGGGAAAAAGGGAGGGAAAGUAUUAUGUUACGCCGUUCGGAUCUGCACUUCCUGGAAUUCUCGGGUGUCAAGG | -0.506

Study 2
Target: RNA binding protein fox-1 homolog 2, RRM domain, GST-SBP tag (RBFOX2, Homo sapiens, UniProt O43251-10, residues 100-194)
Technique: RNA Bind-n-Seq
Form: RNA
Medium: in vitro
Tested at: 365 nM
Notes: natural RNA segment, single round, ends assumed
Relative to: no-protein control
Direction: higher = stronger binding
Construct (chain): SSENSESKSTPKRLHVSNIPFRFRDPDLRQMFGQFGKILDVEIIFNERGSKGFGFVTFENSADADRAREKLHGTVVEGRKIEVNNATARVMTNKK
Strand | RBNS enrichment (R)
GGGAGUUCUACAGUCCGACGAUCGUAUGUGGAAUUCUGUCUCUUGGUAAAGCUCAAAGCCAGGCUAGCCUGAGGUGGCGCAGGGCUCUCCUUCCUGUCCCUUCGAUCUCCUUGAGAAUUAAGAGCUGGCAGCUUGGAAUUCUCGGGUGCCAA | 0.574
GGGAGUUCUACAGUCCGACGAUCAUUUUAGCCAUUUUGUCGCCUGCACCCACUCCCUUCAUACAAUCUAGUCAGAAUAGCAGUUCUAGAGCACAGGUUCUCAGUCUAAGCUAUGGAAAAGCUCCCCUUAUCCAUGGAAUUCUCGGGUGCCAA | 0.415
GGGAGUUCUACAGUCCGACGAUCAGUUUUCAAAAGUUCUUAAAGGCAAGAGUGAAUUUCUGUGGAUUUUACUGGUCCCAGCUUUUAGGUUCUUUAAGACACUAACAGGACUACAUAGAGGCUUUUUCAGCAUUUGGAAUUCUCGGGUGCCAA | 0.548
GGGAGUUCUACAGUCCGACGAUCAGCCUUGUGUGUGGCCAGGGACACCUGGCUUCCCUCCCUACUGCCAAAUAAACCCCUAUGAACCUUGGAGCCAGCUUGGACUCCUACUUGCGCCUGGACUUGGGGGGGGGUGGAAUUCUCGGGUGCCAA | 0.555
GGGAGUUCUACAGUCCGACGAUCCUGACCUGGGCCCACAGAGCCUGGCUUUGGUCCCCAGCAUUGCAGUAUGGUGUGGUGUUUGUAGGCUGUGGGGUCUGGCUGUGUGGCCAAGGUGAAUAGCACAGGUUAGGUGGAAUUCUCGGGUGCCAA | 0.595
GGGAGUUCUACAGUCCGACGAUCGUUCUUGAAAUGCAAGGUAUUUGGGGGUUAUUUAUUAUGAAAGCAACAUACUCUUAAUGUUGAUUUUACAAUAUGAAGAGAUUAUUUAAAAUAAAUUAUUGUUUUCAUUGUGGAAUUCUCGGGUGCCAA | 0.948
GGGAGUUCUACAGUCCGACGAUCAUUAAGAAGGUCUAGACAUGGACAUUUUCUGUCCUACAAUGCUGACAUACUGUUAUUUCUUCUGGGAUUUAUUCUUGGCUGUAAACCCAGAACUAAAUUACAUAGAUGAAUGGAAUUCUCGGGUGCCAA | 0.475
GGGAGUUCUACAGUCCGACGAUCUCUUCCCAAACCCAUGGUGCUUUUUCCCCAACUCAACCUAGACUCCAAGGUGGGGAGGGAUGGGUCAGAGGCCAUAGUGGCCCCUGGAUAAUCCUGACGUGGGGUGGAGUUGGAAUUCUCGGGUGCCAA | 0.396
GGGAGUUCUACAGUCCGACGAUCGUUGUGUGGUACACCUGGCAUGGGUGGUGGUAUUCCUUGAAAUCUGUGGUUAUGAAAAUUAGGCCAAGUGAUUUUAUUCCAAAUAUUAUUUAGUUGCCCUCAUUGGGAUCUGGAAUUCUCGGGUGCCAA | 2.02
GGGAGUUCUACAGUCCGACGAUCGGCCAGGGAUGGCCGGAGAGCUUCGGGUUCCACUAUGUUCACAUGGAUGCCCCAGCGCCUGGGGUGAACAGCCAGACGCAGCAGACACGACUCCAGUGUCAGAGCAGGGCUGGAAUUCUCGGGUGCCAA | 0.194
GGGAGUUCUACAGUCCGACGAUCGUGCUAAUGUAGCUGAUUUUAGUCUCCUUGUCCCACUUACACUAUGCAGUAUCUCCUAACUUCAGUGCACUCUGCUAGAACAGUACAUUUGCUGUAUUUACUGAAAUCUCUGGAAUUCUCGGGUGCCAA | 2.09
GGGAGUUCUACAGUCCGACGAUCAUGGCAUCUUUUCUGCGCGGUGGGGCUCCCGGAGAACUGGGCAUGCGCAUUGUGCCGUGGGGCUUAGGAUGAGUUGGACACGCGCACUGACAAUGCCUAGGACUGCCUUAUGGAAUUCUCGGGUGCCAA | 2.32

Study 3
Target: Interferon regulatory factor 7, full length, phosphomimetic (IRF7, Homo sapiens, UniProt Q92985, residues 1-503, S471D/S472D/S475D/S476D/S477D/S483D/S484D/S487D)
UniProt Q92985, sequence (whole entry, unmodified, looked up): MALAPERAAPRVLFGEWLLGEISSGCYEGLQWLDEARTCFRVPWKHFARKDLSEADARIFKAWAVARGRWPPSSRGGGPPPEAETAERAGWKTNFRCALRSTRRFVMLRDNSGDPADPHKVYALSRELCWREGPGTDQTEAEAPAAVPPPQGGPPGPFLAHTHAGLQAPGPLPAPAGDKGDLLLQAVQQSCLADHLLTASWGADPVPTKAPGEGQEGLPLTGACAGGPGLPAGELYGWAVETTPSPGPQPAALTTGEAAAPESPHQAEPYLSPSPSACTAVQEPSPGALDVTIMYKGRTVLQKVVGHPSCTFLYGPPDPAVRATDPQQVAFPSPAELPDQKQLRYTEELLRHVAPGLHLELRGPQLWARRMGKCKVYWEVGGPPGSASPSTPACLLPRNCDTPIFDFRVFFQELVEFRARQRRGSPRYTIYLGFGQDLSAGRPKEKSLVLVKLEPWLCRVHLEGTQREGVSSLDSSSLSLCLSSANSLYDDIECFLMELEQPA
Technique: protein-binding microarray
Form: double-stranded DNA, one strand shown
Medium: in vitro
Tested at: 2200 nM top
Notes: 60-bp whole probe
With: salmon DNA 0.4 mg/ml
Relative to: random background probes
Direction: higher = stronger binding
Shared flanks, not repeated: GCCTAGCAC … GTCTTGATTCGCTTGACGCTGCTG
Strand | fitted relative affinity
GACGGTTACGACTTTCGGGACGTGCTA | 2.99 z-score
TTAAGACTGGGTTTCGGTTAGTGCTAG | 4.18 z-score
GACAGTTTCCTTTCCCTGACGTGCTAG | 5.54 z-score
TTAGGACTGGGGTTTCCGTTAGTGCTA | 0.156 z-score
TTAGGTTCCGGTTTCGGTCAGTGCTAG | 5.9 z-score
ATATACCTGAATATCTTCAGGTGCTAG | 0.579 z-score
TTAGGACTGTGACTGGGTTAGTGCTAG | -0.219 z-score
TACGAACTGAGTATCGAGACGTGCTAG | -0.0369 z-score
TCAAGTTCATGTTTTGGACTGTGCTAG | 0.546 z-score
TCATTAATGCTTCTGGAACTGTGCTAG | 0.587 z-score
TCAAAAATCATTTTCTCACTGTGCTAG | 0.624 z-score
ATAGAACTGAGTATCGATTAGTGCTAG | 0.107 z-score
GACGGTTTCGCCACTGGGGACGTGCTA | 1.58 z-score
TCATGCTTGTGTTTATTACTGTGCTAG | 1.16 z-score
TCAATTAGAATTTTCATACTGTGCTAG | 0.414 z-score
TTAGAACTGGGGTTTCGCTTAGTGCTA | 1.75 z-score
TCAGATATGCCAAATCTGACTGTGCTA | 0.278 z-score
GACGATATAAGTCTCGAGACGTGCTAG | 0.0873 z-score
TCCTCTTTACTGCTCCACACGTGCTAG | 2.41 z-score
GAAGGTATCGGTATCGGGACGTGCTAG | 0.317 z-score
GACCATTCCAGTTTCGAGACGTGCTAG | 4.21 z-score

Single results of other studies
Strand | target | technique | form | relative to | endpoint | value
GGAGTGCGCACTCC (dsDNA) | KAT6A 1-85 K24A (Homo sapiens, UniProt Q92794) | ITC | double-stranded DNA, one strand shown | WT | relative binding | 32

Repeated from above (study 1):
Strand | log2 enrichment
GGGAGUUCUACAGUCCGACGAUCUGGCCCUGGUGGCAUGCGGGCAGGAAGAGGUGGCCUCAUGGAUCGUGGUGGUCCCGGUGGAAUGUUCAGAGGUGGCCGUGGUGGAGACAGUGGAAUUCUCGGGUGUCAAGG | 0.133
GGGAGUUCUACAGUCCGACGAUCUCAAGUCCUGUGCUACACAUCGUAUGUACCGAAUCGGUUUGGAAAGGUUUUUGGAAAGUAUUAUGUUACGCCGUUCGGAUCUGCACUUCCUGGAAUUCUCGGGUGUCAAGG | -1.1
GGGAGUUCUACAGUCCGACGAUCGCAGGAAGUAAAAACAAAUGGAAAUGCUUCGGAUAGUGGCAGGGGUGGGGGUUGCUAAGGAAAGGGUGGGAUGGGAGUCGGUAAAGAGUUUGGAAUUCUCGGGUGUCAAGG | 0.862
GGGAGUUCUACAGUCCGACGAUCCCUCAAGUCCUGUGCUACACAUCGUAUGUACCGAAUCGGUUUGGAGGUUUGGAAAGUAUUAUGUUACGCCGUUCGGAUCUGCACUUCCAGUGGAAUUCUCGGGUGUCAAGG | -1.14
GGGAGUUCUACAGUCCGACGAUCCACAGACAACACGCACCCACACAGACACAGAGGGAAGGGGUUGGGAUGGGGACAGGGUGCACAGCAGGGCGGGGUAGGACCCCAGCCACUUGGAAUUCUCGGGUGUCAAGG | -0.436
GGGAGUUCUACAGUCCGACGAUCACCAUGCAGGUGGGCAUCUUUGGGAAGUGUGGCAAGGGGGGGAUAGGGAGGGGGGUAACACUUUGGGAACAGGUGGUCCCAGGUCGUUUCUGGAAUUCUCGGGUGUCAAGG | 1.41
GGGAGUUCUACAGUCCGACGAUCGCAGGAAGUAAAAACAAAUGGAAAUGCUUCGGAUAGUGGCAGGGGUGGGGGUAGCUAAGGAAAGGGUGGGAUGGGAGUGGGUAAAGAGUUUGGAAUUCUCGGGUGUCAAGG | 1.85
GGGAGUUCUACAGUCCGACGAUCCUGUGCUACACAUCGUAUGUACCGAAUCGGUUUUUUUGGGGUUUUUUUGGGUUUUUUUGGGGAAAGUAUUAUGUUACGCCGUUCGGAUCUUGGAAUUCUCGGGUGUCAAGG | 1.33
